Results of several laboratories.
± marks the error that the study gave.

SMILES | assay | system | conditions | tissue uptake
CC(C)[C@H](NC(=O)[C@@H]1CCCN1C(=O)[C@H](CCCNC(=N)N)NC(=O)[C@H](CS)NC(=O)[C@H](Cc1c[nH]c2ccccc12)NC(=O)[C@H](CCCNC(=N)N)NC(=O)[C@@H](Cc1ccccc1)NC(=O)[C@H](Cc1c[nH]cn1)NC(=O)[C@H](CCC(=O)O)NC(=O)[C@H](CS)NC(=O)[C@H](CS)NC(=O)[C@@H]1CC(=O)N[C@@H](CCCNC(=N)N)C(=O)NCC(=O)N[C@@H](CC(=O)O)C(=O)N[C@H](Cc2ccc(O)cc2)C(=O)N1)C(N)=O [technetium-99m labelled] | – | C57 mouse, female, B16/F1 melanoma, muscle | intravenous, 0.037 MBq, 0.5 h | 0.98 ± 0.21 %ID/g
CN1C(=O)[C@@H](Cc2ccc(O)c(I)c2)NC(=O)CNC(=O)[C@H](Cc2ccc3ccccc3c2)NC(=O)[C@H](CCCNC(=N)N)NC(=O)[C@H]1CCCNC(=O)c1ccc(CNC(=O)CN2CCN(CC(=O)O)CCN(CC(=O)O)CCN(CC(=O)O)CC2)cc1 [lutetium-177 labelled] | refers to: 177Lu radioactivity | female CB-17 SCID mice, Daudi xenograft, spleen | intravenous, 0.16 nmol per mouse, 96 h | 1.27 ± 0.43 %ID/g
CC(C)[C@H](NC(=O)[C@@H]1CCCN1C(=O)[C@H](CCCNC(=N)N)NC(=O)[C@H](CS)NC(=O)[C@H](Cc1c[nH]c2ccccc12)NC(=O)[C@H](CCCNC(=N)N)NC(=O)[C@@H](Cc1ccccc1)NC(=O)[C@H](Cc1c[nH]cn1)NC(=O)[C@H](CCC(=O)O)NC(=O)[C@H](CS)NC(=O)[C@H](CS)NC(=O)CNC(=O)[C@@H]1CC(=O)N[C@@H](CCCNC(=N)N)C(=O)NCC(=O)N[C@@H](CC(=O)O)C(=O)N[C@H](Cc2ccc(O)cc2)C(=O)N1)C(N)=O [technetium-99m labelled] | – | C57 mouse, female, B16/F1 melanoma, tumor | intravenous, 0.037 MBq, 24 h | 5.55 ± 0.89 %ID/g
CCCC[C@H](NC(=O)CNC(=O)CNC(=O)CN1CCN(CC(=O)O)CCN(CC(=O)O)CC1)C(=O)N[C@H]1CC(=O)NCCCC[C@@H](C(N)=O)NC(=O)[C@H](Cc2c[nH]c3ccccc23)NC(=O)[C@H](CCCNC(=N)N)NC(=O)[C@@H](Cc2ccccc2)NC(=O)[C@H](Cc2c[nH]cn2)NC1=O [gallium-67 labelled] | – | C57 mice, female, B16/F1 melanoma, intestines | intravenous, 0.037 MBq, 2 h | 1.22 ± 0.97 %ID
CCCC[C@H](NC(=O)CNC(=O)CNC(=O)CN1CCN(CC(=O)O)CCN(CC(=O)O)CC1)C(=O)N[C@H]1CC(=O)NCCCC[C@@H](C(N)=O)NC(=O)[C@H](Cc2c[nH]c3ccccc23)NC(=O)[C@H](CCCNC(=N)N)NC(=O)[C@@H](Cc2ccccc2)NC(=O)[C@H](Cc2c[nH]cn2)NC1=O [copper-64 labelled] | – | female C57 mouse, B16/F1 melanoma, blood | intravenous, 0.037 MBq, 0.5 h | 1.59 ± 0.19 %ID/g
O=C([O-])CN1CCN(CC(=O)[O-])CCN(CC(=O)NCCc2ccc3c(c2)C2C=CCC2C(c2cc4c(cc2Br)OCO4)N3)CCN(CC(=O)[O-])CC1.[111In+3] (stereo not drawn) | – | mouse, Hec50 endometrial tumour, large intestine | 1 h post injection | 8.32 ± 1.03 %ID/g
O=C([O-])CN1CCN(CC(=O)[O-])CCN(CC(=O)[O-])CCN(CC(=O)[O-])CC1.[64Cu+2] | – | healthy athymic nude mice, spleen | intravenous, 24 h | 0.48 %ID/g
CCCC[C@H](NC(=O)CNC(=O)CNC(=O)CN1CCN(CC(=O)O)CCN(CC(=O)O)CCN(CC(=O)O)CC1)C(=O)N[C@H]1CC(=O)NCCCC[C@@H](C(N)=O)NC(=O)[C@H](Cc2c[nH]c3ccccc23)NC(=O)[C@H](CCCNC(=N)N)NC(=O)[C@@H](Cc2ccccc2)NC(=O)[C@H](Cc2c[nH]cn2)NC1=O [copper-64 labelled] | – | female C57 mouse, B16/F1 melanoma, liver | intravenous, 0.037 MBq, 24 h | 7.23 ± 0.58 %ID/g
C[C@H](CN(C)Cc1ccccc1)NC(=O)c1ccc(-c2noc(C(F)(F)[18F])n2)cc1 | PET imaging | female Sprague-Dawley rats, muscle | intravenous, 10 min | 0.59 ± 0.17 SUV
CCCC[C@@H]1NC(=O)[C@@H](NC(=O)[C@H](CCC(=O)O)NC(=O)CNC(=O)CN2CCN(CC(=O)O)CCN(CC(=O)O)CCN(CC(=O)O)CC2)CCCCNC(=O)C[C@@H](C(N)=O)NC(=O)[C@H](C(C)C)NC(=O)[C@@H]2CCCN2C(=O)[C@H](CCCNC(=N)N)NC(=O)CNC(=O)[C@H](Cc2c[nH]c3ccccc23)NC(=O)[C@H](CCCNC(=N)N)NC(=O)[C@@H](Cc2ccccc2)NC(=O)[C@H](Cc2c[nH]cn2)NC(=O)[C@H](CCC(=O)O)NC1=O [gallium-67 labelled] | – | normal C57 mice, pancreas | intravenous, 0.037 MBq/mouse, 4 h | 0.2 ± 0.07 %ID/g
O=C(O)C1CN(Cc2ccc(-c3noc(-c4ccc(OCC[18F])c(C(F)(F)F)c4)n3)cc2)C1 | – | male Sprague-Dawley rat, liver | intravenous, 60 min | 5.08 ± 0.324 %ID/g
OCc1cn(Cc2ccc(-c3noc(-c4ccc(OCC[18F])c(C(F)(F)F)c4)n3)cc2)nn1 | – | female Lewis rat, thymus | intravenous, 60 min | 0.82 ± 0.04 %ID/g

Excerpt of the above:
SMILES | assay | system | conditions | tissue uptake
O=C([O-])CN1CCN(CC(=O)[O-])CCN(CC(=O)NCCc2ccc3c(c2)C2C=CCC2C(c2cc4c(cc2Br)OCO4)N3)CCN(CC(=O)[O-])CC1.[111In+3] (stereo not drawn) | – | mouse, Hec50 endometrial tumour, large intestine | 1 h post injection | 8.32 ± 1.03 %ID/g
O=C([O-])CN1CCN(CC(=O)[O-])CCN(CC(=O)[O-])CCN(CC(=O)[O-])CC1.[64Cu+2] | – | healthy athymic nude mice, spleen | intravenous, 24 h | 0.48 %ID/g
